Measured values of several laboratories.
Parts stem from different laboratories: compare values within a part only. Changes are numbered by the printed parent chain.

Sample 1
Target: Centromere-binding protein 1, full length, N-terminal tag (CBF1, Saccharomyces cerevisiae, UniProt P17106, residues 1-351)
Sequence of UniProt P17106 (whole entry, looked up): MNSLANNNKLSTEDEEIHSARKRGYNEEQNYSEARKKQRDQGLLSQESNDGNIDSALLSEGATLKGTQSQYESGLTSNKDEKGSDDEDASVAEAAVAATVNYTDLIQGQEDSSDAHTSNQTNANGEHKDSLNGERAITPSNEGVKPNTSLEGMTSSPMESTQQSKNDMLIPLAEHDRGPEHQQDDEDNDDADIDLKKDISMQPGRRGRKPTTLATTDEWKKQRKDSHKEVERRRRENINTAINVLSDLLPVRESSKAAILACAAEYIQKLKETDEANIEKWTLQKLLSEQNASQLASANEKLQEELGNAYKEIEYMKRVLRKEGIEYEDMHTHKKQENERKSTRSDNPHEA
Technique: protein-binding microarray
Form: double-stranded DNA, one strand shown
Matrix: in vitro
Tested at: 0.8 µM
Setting: whole 60-bp probe, no competitor
Direction: higher = stronger binding
| Sequence | fluorescence intensity [a.u.] |
| --- | --- |
| CTATCAGTATGACAATACGTCACCCTGAACGTTTTCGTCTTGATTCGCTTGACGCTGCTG | 547 |
| TGTACGAAGCTATATGACGTATTTATAGTAGTTAGGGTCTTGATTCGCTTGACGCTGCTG | 491 |
| CCTAACTACTATATCTTCGTGATATAGCTTCGTACAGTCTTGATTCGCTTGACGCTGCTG | 541 |
| CTAGAATGAGGAATAATCGTGATATTAGTAAATTTCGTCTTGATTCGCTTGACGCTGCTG | 552 |
| CTAAATAATCATCATCACCATTATCACTGTTACTTCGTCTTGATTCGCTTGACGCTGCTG | 562 |
| GAAGCCCGAAATCCTCATGATCGAGCCGAATGCTAGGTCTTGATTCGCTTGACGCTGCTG | 510 |
| CTATCGGAGAAGGTGGTCAGGCACACGTGATTCTTCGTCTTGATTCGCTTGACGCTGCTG | 12500 |
| TGTACGAAGCTATAGCACGTGATTATAGTAGTTAGGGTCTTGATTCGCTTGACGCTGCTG | 14600 |

Sample 2
Target: CRIPT, C-terminal peptide
Technique: DHFR complementation, deep sequencing
Matrix: yeast
Setting: single substitutions, model-inferred values
Baseline: wild type
Direction: higher = weaker binding
Starting sequence: ERBIN, PDZ domain 1 (human); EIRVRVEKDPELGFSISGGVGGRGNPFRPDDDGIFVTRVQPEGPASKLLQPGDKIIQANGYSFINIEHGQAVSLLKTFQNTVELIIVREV; partner TKNYKQTSV
| Substitution | binding free energy change |
| --- | --- |
| G60D | 0.0664 kcal/mol |
| L75G | 2.08 kcal/mol |
| K8I | 1.28 kcal/mol |
| V36E | 0.267 kcal/mol |
| I85H | -0.0436 kcal/mol |
| S73W | 0.119 kcal/mol |
| E11H | -0.293 kcal/mol |
| N25G | 0.935 kcal/mol |

Sample 3
Target: Interferon regulatory factor 3, full length, phosphomimetic (IRF3, Homo sapiens, UniProt Q14653, residues 1-427, S386D/S396D/S398D/S402D/T404D/S405D)
Technique: protein-binding microarray
Form: double-stranded DNA, one strand shown
Matrix: in vitro
Tested at: 2540 nM top
Setting: 60-bp whole probe
Added: salmon DNA 0.4 mg/ml
Baseline: random background probes
Direction: higher = stronger binding
Constant ends, left off below: GCCTAGCAC … GTCTTGATTCGCTTGACGCTGCTG
Target sequence (chain): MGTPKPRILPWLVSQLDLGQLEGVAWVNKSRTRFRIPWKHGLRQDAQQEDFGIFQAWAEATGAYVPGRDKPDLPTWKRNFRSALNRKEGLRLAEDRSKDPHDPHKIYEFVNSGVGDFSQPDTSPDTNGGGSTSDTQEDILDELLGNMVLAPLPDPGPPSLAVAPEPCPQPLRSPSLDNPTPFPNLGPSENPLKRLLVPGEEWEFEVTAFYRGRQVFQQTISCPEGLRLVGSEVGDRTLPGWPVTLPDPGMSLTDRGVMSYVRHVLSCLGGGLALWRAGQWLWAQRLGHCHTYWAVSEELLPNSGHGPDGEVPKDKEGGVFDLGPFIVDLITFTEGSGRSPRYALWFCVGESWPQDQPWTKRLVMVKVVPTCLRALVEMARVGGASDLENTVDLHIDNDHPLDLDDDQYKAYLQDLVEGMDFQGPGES
| Sequence | fitted relative affinity |
| --- | --- |
| GACGATTTCGGGTATGGAGACGTGCTA | 1.72 z-score |
| GACGGACTGGGGTTCCGGGACGTGCTA | -0.861 z-score |
| TCATTTTTTTTATTTATACTGTGCTAG | 1.31 z-score |
| GACGATTTCAGACGGGAGACGTGCTAG | 0.517 z-score |
| TCATTTCCATTTTCTGAAACTGTGCTA | 5.08 z-score |
| GACGGTATCGGTAACGGGACGTGCTAG | 2.03 z-score |
| GAGGCTTTTTTTTTTTTTTTGTGCTAG | -0.249 z-score |
| TTAGATTCTAGTTTCGATTAGTGCTAG | 3.83 z-score |

Mixed results
Starting sequence: PafA, mature enzyme, eGFP fusion (Elizabethkingia meningoseptica, UniProt Q9KJX5); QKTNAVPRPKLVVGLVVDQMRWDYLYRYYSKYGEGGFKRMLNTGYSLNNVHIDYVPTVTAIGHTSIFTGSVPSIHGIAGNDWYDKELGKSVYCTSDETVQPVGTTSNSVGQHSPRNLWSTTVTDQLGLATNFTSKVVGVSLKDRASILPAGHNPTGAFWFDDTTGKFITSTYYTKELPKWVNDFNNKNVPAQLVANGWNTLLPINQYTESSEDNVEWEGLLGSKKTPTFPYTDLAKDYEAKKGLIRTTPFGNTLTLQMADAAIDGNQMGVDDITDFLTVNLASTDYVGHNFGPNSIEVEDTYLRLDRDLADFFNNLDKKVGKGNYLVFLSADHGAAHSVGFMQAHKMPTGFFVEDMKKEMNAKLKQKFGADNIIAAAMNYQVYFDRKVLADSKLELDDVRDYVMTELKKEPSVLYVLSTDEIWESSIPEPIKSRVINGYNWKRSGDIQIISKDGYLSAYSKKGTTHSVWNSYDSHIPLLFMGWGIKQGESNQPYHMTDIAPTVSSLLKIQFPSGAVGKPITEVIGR
| Substitution | target | test | test system | conditions | how to read | endpoint | value |
| --- | --- | --- | --- | --- | --- | --- | --- |
| A377V | tungstate, free oxyanion | microfluidic competitive inhibition | in vitro, cell-free expressed | not given, derived from inhibition constants, unchanged parent 2230 nM | lower = stronger binding | oxyanion analog dissociation constant | 1.9 µM |

For quick reference, copied from above (sample 2):
| Substitution | binding free energy change |
| --- | --- |
| G60D | 0.0664 kcal/mol |
| L75G | 2.08 kcal/mol |
| N25G | 0.935 kcal/mol |
